Assay results collected from several papers.
Compare with care: the assays were run in different laboratories. ± marks the error that the study gave.

CC(=O)OC1O[C@@H]2O[C@@]3(C)CC[C@H]4[C@H](C)CCC([C@H]1C)[C@@]24OO3 (stereo partly drawn)
dead embryos (Tg(fli1:EGFP) zebrafish embryos; 75 µg/mL, up to 48 hpf): 3 count

O=C(NCCNCCO)c1cn(Cc2ccccc2)c2cc(OCc3ccc(C(F)(F)F)cc3)c(Cl)cc2c1=O
microsomal CLint (metabolic stability; human, liver microsomes; 1 µM): < 11.6 µL/min/mg

CC1=CC=c2ccc3c4c2[N]1[Re](=[C]=O)(=[C]=O)(=[C]=O)([C]#[N+]c1cc(C)cc(C)c1)[N]4C(C)=CC=3.O=S(=O)([O-])C(F)(F)F
luminescence lifetime (PBS; 10 µM, air-equilibrated): 1.1 µs

O=C(NCCCCCCCCn1ccc2ccccc21)Oc1ccccc1
parent remaining (porcine plasma; 20 µM, 30 min): 64 ± 4%

CCNC(=O)C1OC(n2cnc3c(N)ncnc32)C(O)C1O (stereo not drawn)
log kIAM (IAM chromatography; pH 7.4): -0.57

CCCCCc1cc(O)c2c(c1)OC(C)(C)C1CCC(C(=O)OC3OC(C(=O)O)C(O)C(O)C3O)=CC21 (stereo not drawn)
fu,inc relative to other cannabinoids (human liver and HEK293 microsomes; 50 µM, 30 min; baseline: other cannabinoids): ~10 fold

C=Cc1c(C)c2cc3nc(c(CC(=O)O)c4[nH]c(cc5nc(cc1[nH]2)C(C)=C5CC)c(C)c4C(=O)O)[C@@H](CCC(=O)NCCCC[C@H](NC(C)=O)C(=O)N[C@@H](Cc1ccccc1)C(=O)N[C@@H](Cc1ccccc1)C(=O)N[C@H](C(=O)N[C@@H](CC(C)C)C(=O)N[C@@H](CCCCN)C(=O)N[C@@H](CO)C(=O)NCC(=O)N[C@@H](CCC(N)=O)C(=O)N[C@@H](Cc1ccc(O)cc1)C(=O)N[C@@H](C)C(=O)N[C@@H](CO)C(=O)N[C@@H](Cc1ccc(O)cc1)C(=O)N[C@@H](Cc1c[nH]cn1)C(=O)N[C@@H](CS)C(=O)N[C@@H](Cc1c[nH]c2ccccc12)C(=O)N[C@@H](CS)C(=O)N[C@@H](Cc1c[nH]c2ccccc12)C(=O)N[C@@H](CCCNC(=N)N)C(=O)N[C@@H](CC(=O)O)C(=O)N1CCC[C@H]1C(=O)NCC(=O)N[C@@H](CCCNC(=N)N)C(=O)N[C@@H](CO)C(=O)NCC(=O)NCC(=O)N[C@@H](CO)C(=O)N[C@@H](CCCCN)C(N)=O)C(C)C)[C@@H]3C
time to peak liver fluorescence (ex vivo fluorescence imaging; mice bearing 4T1 tumours, liver; iv, 13 mg/kg): 6 h

CC(C)[C@H](NC(=O)[C@H](Cc1c[nH]c2ccccc12)NC(=O)[C@H](Cc1ccccc1)NC(=O)[C@@H](NC(=O)[C@@H](NC(=O)[C@H](CCCCN)NC(=O)[C@@H](N)CCCCN)C(C)C)C(C)C)C(=O)N[C@@H](CCCCN)C(=O)N[C@@H](Cc1ccccc1)C(=O)N[C@@H](CCCCN)C(N)=O
cytokine level (ELISA, measured: TNF-α; mouse, blood; intravenous, 500 µg/kg, 5 days): 205 ± 17.4 pg/mL

O=c1cc(-c2ccccc2)oc2c(Br)c(O)c(O)c(O)c12
MRT(0-t) (C57BL/6 mouse, plasma; intravenous, 10 mg/kg, single dose): 1.5 h

O=S(=O)(O)C(F)(F)C(F)(F)OC(F)(C(F)(F)F)C(F)(F)OC(F)C(F)(F)F (stereo not drawn)
male sex effect on concentration (human, serum; concentration not given): 0.34 ng/mL

O=P1(NCCCl)NCCCO1 (stereo not drawn)
Tmax (rat, plasma; intravenous, 10 mg/kg CP, together with: ketoconazole 10 mg/kg oral 50 min before): 2.17 ± 0.931 h

COC(=O)C[C@](O)(CCCC(C)(C)OC(C)=O)C(=O)O[C@@H]1C(OC)=C[C@]23CCCN2CCc2cc4c(cc2[C@H]13)OCO4
tissue concentration (CD1 mouse, liver; oral, 1 mg/kg, 2 h): 275 ng/mL

CCc1c2c(nc3ccc(OC4OC(C(=O)O)C(O)C(O)C4O)cc13)-c1cc3c(c(=O)n1C2)COC(=O)C3(O)CC (stereo not drawn)
Cmax (human patients, plasma; intravenous, 24 mg/m^2 of parent drug): 18 ng/mL

CCCCCCCCCCCCC(=O)O.O=C1CCCC2C3CCCN4CCCC(CN12)C34 (stereo not drawn)
standard entropy of micellization (electrical conductivity; water; 298.15 K, critical micelle concentration): 88.7 J/(mol·K)

COC(=O)C[C@H](NC(=O)[C@H](C)NC(=O)[C@@H](NC(=O)[C@H](CC(=O)OC)NC(=O)[C@@H](NC(=O)c1ccc2ccccc2n1)C(C)C)C(C)C)C(=O)COc1c(F)cccc1F
developmental cell death (TUNEL; rat pups, brain; 1 mg/kg): no effect

CC(C)[C@H](NC(=O)CNC(=O)[C@H](CCC(N)=O)NC(=O)[C@H](C)N)C(=O)O
subjects given concomitant medication (human; 30 mg/kg single dose): 0%

CC(C)C[C@@H](NC(=O)[C@@H](CCCCN)NC(=O)CNC(=O)CNC(=O)[C@@H]1CSSC[C@H](N)C(=O)NCC(=O)N[C@@H](CCCNC(=N)N)C(=O)N[C@@H](CCCNC(=N)N)C(=O)N[C@@H](C)C(=O)NCC(=O)NCC(=O)N[C@@H](CO)C(=O)N1)C(=O)N[C@H](C)C(=O)N[C@H](CCCCN)C(=O)N[C@H](CC(C)C)C(=O)N[C@H](C)C(=O)N[C@H](CCCCN)C(=O)N[C@H](CCCCN)C(=O)N[C@H](CC(C)C)C(=O)N[C@H](C)C(=O)N[C@H](CCCCN)C(=O)N[C@H](CC(C)C)C(=O)N[C@H](C)C(=O)N[C@H](CCCCN)C(=O)O
Vd (cynomolgus monkey, plasma; intravenous, 3 mg/kg, infusion): 2.9 L

CC[C@H](C)C(=O)N1CCC(NC(=O)Nc2ccc(OC(F)(F)F)c(F)c2)CC1
AUC(0-inf) (human, plasma; oral, 8 mg, single dose, fasted, healthy volunteers): 3260 ng·h/mL

CC(C)(N)CNC(=O)O[C@H]1CCCC2(C1)OOC1(O2)C2CC3CC(C2)CC1C3 (stereo partly drawn)
CLint (human liver microsomes): < 11.5 µL/min/mg

CC[C@H](C)[C@H](NC(=O)[C@H](CCCNC(=N)N)NC(=O)[C@H](CCCNC(=N)N)NC(=O)[C@H](CC(C)C)NC(=O)[C@@H](N)Cc1c[nH]c2ccccc12)C(=O)NCC(=O)N[C@@H](CCCCN)C(=O)NCC(=O)N[C@H](C(=O)N[C@@H](CCCCN)C(=O)N[C@H](C(=O)N[C@H](C(=O)NCC(=O)NCC(=O)N[C@@H](C)C(=O)N[C@@H](C)C(=O)N[C@@H](CC(C)C)C(=O)N[C@@H](CC(=O)O)C(=O)N[C@@H](Cc1c[nH]cn1)C(=O)N[C@@H](CC(C)C)C(N)=O)[C@@H](C)CC)[C@@H](C)CC)C(C)C
toxicity (zebrafish embryos; 1, 5, 25 µM, 4, 28, 52 hpf): not toxic

COc1cc(NC(=O)C(=O)c2c(C)n(Cc3ccc(Cl)cc3)c3ccc(C)cc23)ccn1
clearance (cynomolgus monkey, male and female, plasma; intravenous, 1 mg/kg, mean): 9.35 mL/min/kg

Repeated from above:
CC(C)[C@H](NC(=O)CNC(=O)[C@H](CCC(N)=O)NC(=O)[C@H](C)N)C(=O)O
subjects given concomitant medication (human; 30 mg/kg single dose): 0%

CC(C)C[C@@H](NC(=O)[C@@H](CCCCN)NC(=O)CNC(=O)CNC(=O)[C@@H]1CSSC[C@H](N)C(=O)NCC(=O)N[C@@H](CCCNC(=N)N)C(=O)N[C@@H](CCCNC(=N)N)C(=O)N[C@@H](C)C(=O)NCC(=O)NCC(=O)N[C@@H](CO)C(=O)N1)C(=O)N[C@H](C)C(=O)N[C@H](CCCCN)C(=O)N[C@H](CC(C)C)C(=O)N[C@H](C)C(=O)N[C@H](CCCCN)C(=O)N[C@H](CCCCN)C(=O)N[C@H](CC(C)C)C(=O)N[C@H](C)C(=O)N[C@H](CCCCN)C(=O)N[C@H](CC(C)C)C(=O)N[C@H](C)C(=O)N[C@H](CCCCN)C(=O)O
Vd (cynomolgus monkey, plasma; intravenous, 3 mg/kg, infusion): 2.9 L

CC[C@H](C)C(=O)N1CCC(NC(=O)Nc2ccc(OC(F)(F)F)c(F)c2)CC1
AUC(0-inf) (human, plasma; oral, 8 mg, single dose, fasted, healthy volunteers): 3260 ng·h/mL
